Published values collected from several papers.
A part holds a random share of what one study measured. Substitutions count along the parent as printed.

Set 1 — method: universal PBM; molecule type: double-stranded DNA, one strand shown; sample: in vitro; tested at: not given; direction: higher = stronger binding; quantity: E-score
Target: Sal-like protein 4, full length isoform B (SALL4, Homo sapiens, UniProt Q9UJQ4-2, residues 1-616)
Notes: 8-mer, flanks averaged, mean of replicates
CATTTACA: 0.224
AGGTATCC: -0.0272
CCATTGGA: -0.0873
AGTTTTCC: -0.0428
ACAATCGC: -0.00231
AAGGAATA: 0.217
ACACGCCC: -0.17
AATGCATA: 0.259

Set 2 — method: aptamer microarray, sandwich; molecule type: DNA with 2'F-ANA; sample: in vitro; tested at: 200 nM; added: Cy3 exosite-II aptamer, 400 nM; direction: higher = stronger binding; quantity: mean fluorescence intensity; oligonucleotide: GGTTGGTGTGGTTGG
Target: Prothrombin, mature alpha-thrombin (F2, Homo sapiens, UniProt P00734)
Notes: whole 15-mer aptamer, many near background
2'F-ANA at 1 2 4 5 6 7 8 9 10 11: 94.5 a.u.
2'F-ANA at 3 6 8 11 13 14 15: 512 a.u.
2'F-ANA at 2 5 6 7 8 9 11 13 15: 109 a.u.
2'F-ANA at 3 4 5 7 15: 110 a.u.
2'F-ANA at 1 4 6 7 11 12 14: 54.4 a.u.
2'F-ANA at 2 3 4 5 6 9 10 11 12 13 14: 51.9 a.u.
2'F-ANA at 1 2 6 12 13 14: 60.1 a.u.
2'F-ANA at 4 8 9 10 11 12 13 15: 79.6 a.u.

Set 3 — method: protein-binding microarray; molecule type: hairpin DNA; sample: in vitro; tested at: not given; baseline: not given; direction: higher = stronger binding; quantity: median fluorescence; shared flanks, not repeated: GAGGCCG … CGGCCTCACACTC
Target: Homeobox protein Hox-B13, full length (HOXB13, Homo sapiens, UniProt Q92826, residues 1-284)
UniProt Q92826, sequence (whole entry, looked up): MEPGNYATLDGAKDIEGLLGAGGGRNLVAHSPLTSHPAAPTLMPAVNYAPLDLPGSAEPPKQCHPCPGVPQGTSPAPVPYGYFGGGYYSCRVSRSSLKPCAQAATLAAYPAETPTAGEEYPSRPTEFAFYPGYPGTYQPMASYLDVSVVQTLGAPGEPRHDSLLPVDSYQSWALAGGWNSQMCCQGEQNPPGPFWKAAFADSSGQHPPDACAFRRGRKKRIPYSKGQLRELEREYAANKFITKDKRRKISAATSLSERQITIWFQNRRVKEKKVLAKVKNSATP
Notes: whole hairpin DNA, median over replicate spots
TGTTATTGGGGCCTCCTGGCCCCAATAACA (5mC at 36): 4260 a.u.
GTTTACGAGGGCCTCCTGGCCCTCGTAAAC (5mC at 37): 5430 a.u.
TTGTACGAGGGCCTCCTGGCCCTCGTACAA (5mC at 35): 4200 a.u.
TCGTATTGGGGCCTCCTGGCCCCAATACGA (5mC at 9 35): 4120 a.u.
TTTTACGAGCGCCTCCTGGCGCTCGTAAAA (5mC at 17): 5780 a.u.
TTTTATTAGGGCCTCCTGGCCCTAATAAAA: 4800 a.u.
TTTTATTGGGGCCTCCTGGCCCCAATAAAA: 5320 a.u.
TTTTACGATGGCCTCCTGGCCATCGTAAAA: 4680 a.u.

Mixed results
Parent: PafA, mature enzyme, eGFP fusion (Elizabethkingia meningoseptica, UniProt Q9KJX5); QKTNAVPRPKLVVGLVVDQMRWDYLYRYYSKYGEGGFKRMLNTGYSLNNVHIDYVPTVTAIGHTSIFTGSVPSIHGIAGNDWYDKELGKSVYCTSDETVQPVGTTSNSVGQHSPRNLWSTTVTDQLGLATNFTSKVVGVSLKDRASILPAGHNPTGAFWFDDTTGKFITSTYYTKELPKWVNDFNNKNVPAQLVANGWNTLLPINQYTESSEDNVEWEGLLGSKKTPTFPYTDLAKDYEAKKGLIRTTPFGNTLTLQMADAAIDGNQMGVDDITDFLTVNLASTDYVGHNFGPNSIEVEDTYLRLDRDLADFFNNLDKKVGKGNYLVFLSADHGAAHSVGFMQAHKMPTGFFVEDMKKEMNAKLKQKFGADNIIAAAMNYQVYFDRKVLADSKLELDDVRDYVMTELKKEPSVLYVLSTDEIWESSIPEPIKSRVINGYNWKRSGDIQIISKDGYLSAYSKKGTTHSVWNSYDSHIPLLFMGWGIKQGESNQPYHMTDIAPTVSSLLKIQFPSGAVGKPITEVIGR
V91A
oxyanion analog dissociation constant (tungstate, free oxyanion; microfluidic competitive inhibition; in vitro, cell-free expressed; not given, derived from inhibition constants, unchanged parent 2230 nM; lower = stronger binding): 2.3 µM

For quick reference, copied from above (set 1):
CCATTGGA: -0.0873
AGTTTTCC: -0.0428
